Published values of several laboratories.
A part holds a random share of what one study measured. Changes are numbered by the printed parent chain.

Study 1
Target: CCND2, cyclin fold, Cln2 fusion (human)
Method: yeast growth competition, sequencing
Matrix: yeast
Setting: weak parent motif
Reference: not given
Direction: higher = stronger binding
Parent: GMNC docking peptide (human); KNAKRNLSSEFAN
Substitution	normalised enrichment score
KNPKRNLSSEFAN [A3P]	-0.22
KNAKENLSSEFAN [R5E]	0.251
KNAKRNLSSETAN [F11T]	0.36
KNAKRNLSFEFAN [S9F]	0.397
KHAKRNLSSEFAN [N2H]	0.216
KNAKVNLSSEFAN [R5V]	-0.129
KNAMRNLSSEFAN [K4M]	0.0281
KNAKRNLSSIFAN [E10I]	-0.307

Study 2
Target: Ras GTPase-activating protein-binding protein 1, C-terminal RGG region (G3BP1, Homo sapiens, UniProt Q13283)
UniProt Q13283, sequence (whole entry, looked up): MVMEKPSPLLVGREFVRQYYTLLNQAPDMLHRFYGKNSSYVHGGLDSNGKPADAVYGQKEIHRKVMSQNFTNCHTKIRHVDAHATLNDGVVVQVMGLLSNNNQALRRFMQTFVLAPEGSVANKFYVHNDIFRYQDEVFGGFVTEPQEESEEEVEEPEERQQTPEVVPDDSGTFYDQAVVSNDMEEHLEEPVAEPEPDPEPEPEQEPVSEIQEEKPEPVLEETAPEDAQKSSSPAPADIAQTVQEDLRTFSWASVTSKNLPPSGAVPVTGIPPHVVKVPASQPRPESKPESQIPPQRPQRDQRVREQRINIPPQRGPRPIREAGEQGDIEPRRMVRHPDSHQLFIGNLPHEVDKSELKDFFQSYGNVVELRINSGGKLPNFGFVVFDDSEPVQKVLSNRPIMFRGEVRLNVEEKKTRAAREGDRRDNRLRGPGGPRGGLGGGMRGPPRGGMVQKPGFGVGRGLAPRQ
Method: RNA Bind-n-Seq
Molecule type: RNA
Matrix: in vitro
Tested at: 1 µM
Setting: whole 134-nt RNA, ends assumed
With: 150 mM KCl
Reference: input library
Direction: higher = stronger binding
Sequence	log2 enrichment
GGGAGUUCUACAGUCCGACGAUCCAAGUCCUGUGCUACACAUCGUAUGUACCGAAUCGGGAAAGGGAGGGAAAAAGGGAAAGUAUUAUGUUACGCCGUUCGGAUCUGCACUUCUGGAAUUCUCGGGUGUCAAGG	1.81
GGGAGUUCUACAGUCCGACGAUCCAAGUCCUGUGCUACACAUCGUAUGUACCGAAUCGGAAAAAGGAGGAAAAAAAGGAAAGUAUUAUGUUACGCCGUUCGGAUCUGCACUUCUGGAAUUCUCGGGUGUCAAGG	-1.75
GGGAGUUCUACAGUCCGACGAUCUAACUUUAGAGGAGGAUCUGAUGGAUAUGGCAGUGGACGUGGAUUUGGGGAUGGCUAUAAUGGGUAUGGAGGAGAACCUGGAGGUGGCAAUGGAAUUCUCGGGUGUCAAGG	-1.02
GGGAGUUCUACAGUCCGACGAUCAGUCCUGUGCUACACAUCGUAUGUACCGAAUCGGCCCCCGGCCCCCGGGCCCCCGGGGAAAGUAUUAUGUUACGCCGUUCGGAUCUGCACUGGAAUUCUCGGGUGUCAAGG	-1.83
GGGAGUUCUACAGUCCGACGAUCAAGUCCUGUGCUACACAUCGUAUGUACCGAAUCGGGAAAAGGAAAAGGAAAAGGGGAAAGUAUUAUGUUACGCCGUUCGGAUCUGCACUUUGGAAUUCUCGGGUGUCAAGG	-1.67
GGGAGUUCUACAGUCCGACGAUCAAGUCCUGUGCUACACAUCGUAUGUACCGAAUCGGAAAAAGGAAAAAAAGGUUUGGAAAGUAUUAUGUUACGCCGUUCGGAUCUGCACUUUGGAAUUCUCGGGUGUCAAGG	-2.44
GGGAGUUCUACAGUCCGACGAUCCCUCAAGUCCUGUGCUACACAUCGUAUGUACCGAAUCGGUGGAAAGGAAAGGAAAGUAUUAUGUUACGCCGUUCGGAUCUGCACUUCCAGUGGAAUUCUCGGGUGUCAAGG	-0.79
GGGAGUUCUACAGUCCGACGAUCAAGUCCUGUGCUACACAUCGUAUGUACCGAAUCGGGGUUUUGGUUUUGGGGUUUUGGAAAGUAUUAUGUUACGCCGUUCGGAUCUGCACUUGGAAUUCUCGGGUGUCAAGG	-1.34

Other studies, line by line
Molecule	target or system	assay	test system	setting	quantity	value
RPN1 (Homo sapiens, UniProt P04843)	MLEC (Homo sapiens, UniProt Q14165)	cross-linking MS		hits only	interaction screen	cross-linked
RQYERYTAL	HLA class I histocompatibility antigen, C alpha chain, allele C*04:01 (Homo sapiens, UniProt P10321)	peptide-MHC binding	peptide	concentration not given	binding	inactive
GAPDH (Homo sapiens, UniProt P04406)	HSPA1B (Homo sapiens, UniProt P0DMV9)	cross-linking MS		hits only	interaction screen	cross-linked
NOA1 (Homo sapiens, UniProt Q8NC60)	UBXN4 (Homo sapiens, UniProt Q92575)	cross-linking MS	cell fractions	with: DSSO	cross-linked residues	S369 to K269
COPB2 (Homo sapiens, UniProt P35606)	COPA (Homo sapiens, UniProt P53621)	cross-linking MS	cell fractions	with: DHSO	cross-linked residues	E832 to E714

Repeated from above (study 1):
Substitution	normalised enrichment score
KNAKRNLSSETAN [F11T]	0.36
